Assay results collected from several papers.
Numbered parts are unrelated; each lists some results of a single study. Changes are numbered by the printed parent chain.

Study 1
Target: CCNB3, cyclin fold, Cln2 fusion (human)
Technique: yeast growth competition, sequencing
Matrix: yeast
Notes: strong parent motif
Reference: not given
Direction: higher = stronger binding
Parent: BRCA2 docking peptide (human); PSIKRNLLNEFDR
Change	normalised enrichment score
D12Y	0.9
F11D	0.0827
K4W	0.0013
L7N	-1.12
S2G	0.808
I3N	0.0348
L7W	0.144
P1V	1.09
I3L	1.17
N9D	1.57
L8G	-0.138
N9H	1.53
N6F	0.603
I3T	-0.138
N6Q	0.103
S2V	0.887
E10N	0.453
K4V	1.47
I3A	0.501
D12N	1.43
R13T	1.11
I3P	1.03
L8H	0.425
R5F	0.408
F11Q	0.202

Study 2
Target: Ras GTPase-activating protein-binding protein 1, RRM domain (G3BP1, Homo sapiens, UniProt Q13283)
UniProt Q13283, sequence (whole entry, looked up): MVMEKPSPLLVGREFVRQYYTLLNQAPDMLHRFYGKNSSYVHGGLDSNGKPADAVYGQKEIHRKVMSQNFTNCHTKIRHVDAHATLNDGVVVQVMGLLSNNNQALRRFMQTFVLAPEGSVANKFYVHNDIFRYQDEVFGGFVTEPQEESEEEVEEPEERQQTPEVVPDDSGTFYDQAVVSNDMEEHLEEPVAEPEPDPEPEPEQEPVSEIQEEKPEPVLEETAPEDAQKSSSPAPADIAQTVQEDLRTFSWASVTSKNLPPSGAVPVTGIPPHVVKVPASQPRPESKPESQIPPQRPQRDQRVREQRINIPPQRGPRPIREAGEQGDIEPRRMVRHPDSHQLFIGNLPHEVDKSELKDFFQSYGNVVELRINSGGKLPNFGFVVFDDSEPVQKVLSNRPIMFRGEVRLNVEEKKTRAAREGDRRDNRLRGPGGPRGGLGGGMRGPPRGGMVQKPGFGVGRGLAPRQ
Technique: RNA Bind-n-Seq
Molecule type: RNA
Matrix: in vitro
Concentration: 1 µM
Notes: whole 134-nt RNA, ends assumed
Added: 150 mM KCl
Reference: input library
Direction: higher = stronger binding
Constant ends, left off below: GGGAGUUCUACAGUCCGACGAUC … UGGAAUUCUCGGGUGUCAAGG
Strand	log2 enrichment
CUCAAGUCCUGUGCUACACAUCGUAUGUACCGAAUCGGGAAGGGAAGGAAGGGGAAAGUAUUAUGUUACGCCGUUCGGAUCUGCACUUCC	0.373
UGUGUGACUUCCUUGGAGAGAAGAUUGCAUCUGUUUUGGGUAUCAGCACCCCAAAGUACCAAUAUGCCAUUGAUGAAUAUUAUCGGAUGA	-0.0941
GCAGGAAGUCAAAACAAAUGGAAAUGCUUCGGAUAGUGGCAGGGGUGGGGGUUGCUAAGGAAAGGGUGGGAUGGGAGUGGGUAAAGAGUU	1.24
AAGUCCUGUGCUACACAUCGUAUGUACCGAAUCGGGAGGGUUUUUGGGAAAAAGGGAAAGUAUUAUGUUACGCCGUUCGGAUCUGCACUU	0.557
UCAAGUCCUGUGCUACACAUCGUAUGUACCGAAUCGGAAAAAGGUUUGGAAAGGAAAGUAUUAUGUUACGCCGUUCGGAUCUGCACUUCC	-0.175
AGUCCUGUGCUACACAUCGUAUGUACCGAAUCGGGGAAAGGGGAGGGGAAAAAGGGGAAAGUAUUAUGUUACGCCGUUCGGAUCUGCACU	0.998
UCCUGUGCUACACAUCGUAUGUACCGAAUCGGUUUUUUGGGUUUUUUGGUUUUUUGGGGAAAGUAUUAUGUUACGCCGUUCGGAUCUGCA	-0.293
UGGCAGGAAAGAGUUCCUAGAGAGAGAAGACAAAGACAGUCUGUGUUGCAAAAGAAGCCCAAGGCUGAAGAUUUAAGAACUGAAUGUGCA	0.000467
GCAGGAAGUAAAAACAAAUGGAAAUGCUUCGGAUAGUGGCGGGGGUGGGGGUUGCUAAGGAAAGGGUGGGAUGGGAGUGGGUAAAGAGUU	1.11

Study 3
Target: RNA binding protein fox-1 homolog 2, RRM domain, GST-SBP tag (RBFOX2, Homo sapiens, UniProt O43251-10, residues 100-194)
Technique: RNA Bind-n-Seq
Molecule type: RNA
Matrix: in vitro
Concentration: 365 nM
Notes: natural RNA segment, single round, ends assumed
Reference: no-protein control
Direction: higher = stronger binding
Constant ends, left off below: GGGAGUUCUACAGUCCGACGAUC … UGGAAUUCUCGGGUGCCAA
Target sequence (chain): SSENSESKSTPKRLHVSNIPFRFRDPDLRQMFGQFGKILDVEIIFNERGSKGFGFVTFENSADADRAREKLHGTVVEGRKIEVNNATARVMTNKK
Strand	RBNS enrichment (R)
UCUCCACACAUCACCUGUUGUCUCACAAAAAGUAGGGGAACCUUGUCAGUCACAUAGGACAGGAUAUUUAAUGUACUUUUCCUUUCUCUGAGCCACAGUUAGCUGCUAUU	0.335
GACAUGAGUUCCUAAAGGGCACUGAAAAGGGCACCUCCUUCCUGUGUCUGCCUCCACUGCACCCCCAGUCCCUAAAGCAGGGAUCGUGUGUGGUGAGGAACGCUCUCUUC	0.393
UUCCACUAGAAGGAGUCACCCAGGCAUUUAGUGAAUGAUAAUCCUAGAAGUUGAGUCUGAGUACAUCAGAGUUUGGCAUUAUUUGCAACAUCCCAGGAAUGAGCUAUAAG	0.932
UUUCAGGAGAGCCUAUUGCCCUACGUGAGCAUUAGGUAAAACUCUUAAAUUUCUGUUUACAUUGAAAGCUGUUCAUUCAUGGCGCCCCCCCCCCCCCAAUCAUAAGACCA	0.352
CCAACCAAACAAACAAAAAAACAAAGCUAAAAUGACAGCAACCAAAAGUAAUUUGCUUAUUCAGUGGGCAUGUAAAGAGUCUGGCCACCAUGUCCCCUCUGCACCGUGAC	1.85
UGGCCCCUCCUCUGAAGGCCAGCAAGAGGUGGAGCAAGGAUCAACUGCUGUUCUGGAGUAGGGUUCCAUCUCCCAUUUCUUCCAGCUCUGCCAAGUUGGCCCUCCCUGCU	0.424
UAGGGAGAGGCGAGGUUACAGUGUUUAUAUUUUGGAACCUUCCUGAAGGUGUGAAAUUGUAAAUAUUUUUAUCUAAGUAAAUGUUAAGCAGUUGUUUUAAAAAUACUUAA	0.438
ACACUUCCACCCUUUUUUCUAAGUGUUCGUCUUUAGUUUUGAUUUUGGAAAGAUGUUAAGCAUUUAUUUUUAGUUAAAAAUAAAAACUAAUUUCAUACUAUUUAGAUUUU	0.776

Study 4
Target: JUN, bZIP domain (human)
Technique: DHFR protein complementation
Matrix: yeast
Notes: single substitutions, most at no-binding floor
Reference: wild-type JUN-FOS pair
Direction: higher = stronger binding
Parent: JUN, bZIP domain (human); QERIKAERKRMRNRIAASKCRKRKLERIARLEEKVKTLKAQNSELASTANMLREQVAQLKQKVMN; partner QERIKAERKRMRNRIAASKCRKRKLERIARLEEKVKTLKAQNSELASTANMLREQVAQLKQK
Change	binding fitness
A57E	-0.0219 natural log
M51L	-0.178 natural log
S47H	-0.129 natural log
K34N	-0.367 natural log
V35E	-1.1 natural log
T37N	-0.167 natural log
E33V	-0.693 natural log
A29W	-0.499 natural log
A40E	-0.132 natural log
E32M	-0.51 natural log

Study 5
Target: ABI1, truncated, D143A, DHFR fusion (Arabidopsis thaliana, UniProt P49597)
Technique: DHFR PCA, dose-response
Matrix: yeast
Notes: Hill fit, mean, not affinity
Added: (+)-ABA, dose series
Direction: lower = more sensitive
Parent: PYL1, truncated, DHFR fusion (Arabidopsis thaliana, UniProt Q8VZS8); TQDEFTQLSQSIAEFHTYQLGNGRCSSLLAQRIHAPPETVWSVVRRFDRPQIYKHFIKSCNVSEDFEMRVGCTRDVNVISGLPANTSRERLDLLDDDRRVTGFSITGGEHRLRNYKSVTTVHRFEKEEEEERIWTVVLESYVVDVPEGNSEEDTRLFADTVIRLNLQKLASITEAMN
Change	ABA EC50
T73S	4.16 µM
S63D	2.72 µM
T101Y	10.4 µM
V40A	148 µM
E4F	12 µM
V62K	89.5 µM
M176F	4.08 µM
T1H	2.24 µM
G21N	3.41 µM
E139I	3.66 µM
L82I	4.5 µM
G71E	131 µM
I33S	360 µM
L164W	9.33 µM
T119I	14.9 µM
G81C	93.2 µM
R113Q	1.74 µM
R49T	2.61 µM
E174F	38.1 µM
R69I	2.66 µM
S9V	7.58 µM
I12G	257 µM
S9D	2.46 µM
S11R	8.56 µM

A few entries again (study 5):
Change	ABA EC50
R49T	2.61 µM
T119I	14.9 µM
T1H	2.24 µM
L82I	4.5 µM
